Results of several laboratories.
Every numbered part comes from another study and shows a few of its results, in no order.

Sample 1 — method: protein binding microarray; molecule type: double-stranded DNA, one strand shown; matrix: in vitro; concentration: not given; reference: not given; direction: higher = stronger binding
Target: Histone acetyltransferase KAT6A, both winged helices, GST fusion (KAT6A, Homo sapiens, UniProt Q92794, residues 1-181)
Notes: 8-mer, flanks averaged, mean of 2 arrays, mostly near background
Target sequence (chain): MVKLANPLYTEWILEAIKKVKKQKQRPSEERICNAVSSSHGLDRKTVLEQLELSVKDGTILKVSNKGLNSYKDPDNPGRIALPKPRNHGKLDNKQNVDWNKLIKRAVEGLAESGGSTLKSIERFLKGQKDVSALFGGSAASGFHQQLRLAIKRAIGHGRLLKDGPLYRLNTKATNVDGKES
Oligonucleotide	E-score
TAGCTAGA	-0.0417
AAGGCTGC	-0.135
AGTAGAAT	-0.164
GTAGTAGA	-0.123
ATGGGAGA	-0.2
CTCATAGA	-0.125
ACCATCGG	-0.000635
CAATAGGG	-0.236
CCTTATCG	-0.07
GCAAACCC	0.0984
ACTGCACT	-0.114
AAGTTCGC	-0.0662
GAGAGCCC	-0.129
ATATGCCG	0.257
CAGCGAAG	-0.0564
ACAACCCT	-0.105
ACAACTAT	-0.0169
CTATTGGC	-0.119
TGGAATAA	-0.1
CATGATTC	-0.0475
CGATACGA	-0.11

Sample 2 — method: RNA Bind-n-Seq; molecule type: RNA; matrix: in vitro; concentration: 365 nM; reference: no-protein control; direction: higher = stronger binding
Target: RNA binding protein fox-1 homolog 2, RRM domain, GST-SBP tag (RBFOX2, Homo sapiens, UniProt O43251-10, residues 100-194)
Notes: natural RNA segment, single round, ends assumed
Shared flanks, not repeated: GGGAGUUCUACAGUCCGACGAUC … UGGAAUUCUCGGGUGCCAA
Target sequence (chain): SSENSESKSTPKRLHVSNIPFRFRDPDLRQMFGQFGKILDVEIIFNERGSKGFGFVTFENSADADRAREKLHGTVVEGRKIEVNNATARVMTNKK
Oligonucleotide	RBNS enrichment (R)
CGCACUUCACCCUCGCGAGCCGCUGUUCACUCCUCUCCCCUUUCUCUUUCUCUCUGUUUUUAAAAUAAUCUAAAGAAAGCACAUUUUACCAUUGCUGUUGGGAGGAAGCA	0.694
UAACAAUAGCUUUAUGUCUUUGUGAAAAUGAAAUUUACUUUUAGUUUCAUAUUAUAUUUAAAGACAUGGAAUUUGUCUAGUUCAGUAUCUAUCUAUCUAUCUAUCUAUCU	0.654
CCUCUCCUGUCCCCUUCUGUGUGCACAUAGGUCCAUAGGCUCAUUAGAGGGAUGAGAGUUCCCAUUAAGCACUCCAUGCAAUGGCCUCUCACUGUUUAAAGAACACACUU	0.297
GGGGUCAUUCUACCAACAAUCAGUCCCUGAGGGUUCACAACACCCUGGAACCAAACAUCAGAAUGCACACUAUUCUCCUAACAGUGAGCAUGGGGGGCAGGAGCCAGGGA	0.412
GAGAUUGUAAAAUGGAAAAAGAAUCGUUUUUUUGUUGACUUUUUGAUGCUGGCACGAGGUUUUUGUCCACUUUUUUCAUAUAUCUGUGUAUAAAAAAAUUGUUGUUUACU	0.76
ACAGAGUAUUUGCCACAAGAGGAGAGUAUCCCUCCAGCAAAUAAAAGCAAGUUAGAACGGGCUGGAUAGCCAAAGAGGCAGCCAUUCGGACCUAGGAAGUUGGGGUCUGU	0.719
GAAUGGCCACCAGGCUUCCCAGAGUUCUAUGGUCUUCUUCCCAAGAGAGUUUUUAAUUGUAAAUGCAUACUUGGGAAGGACUUAGAGUUUUAAACUGUUUUUUGCUUUUG	0.58
GUUUGUUCUUCAUAGGACCAAUUUUUAUUUGCAGCUUGAGUUUUUAUAUGAAGUUGCAUUAUUGUGGACUUGGCUGUCUUGUGAUGAAUUUUUUUCAUAUGUAUUCUGUG	0.858
CACAAUUACCCUGUAAACUCUCUGUUAGGGCAACCACCACCACCUGUCUUCCAGGACACAUUUUUAGAUACUCUGACAGGCCACUGCAUCUCAGAUUCAGGGGAGAAAAU	0.598
UAGACCAUGCCUUCCUUUGUUCAUGAAGAUGACAAAAAUGGGAGAUGAGAUGGAUCAAGGUCAAAAUGAUCCUUUAUCUACAUUUUCCAAAGAGAAUCUAAUUUUUUCAG	0.324
AGAUGGAACUUUCAUAAAGUUUCUUGGCAGUAGUUUAUUUUGCUUCAAAUAAACUUAUUUGAAAAGUGUCUCAAGUCAAAUGGAUUCAUCACCUGUCAUGCAUUGACACC	0.379
ACGCCAGCCAGCCAGGCCGCAGCAGCAUCUGCCUCGAGGCUGCAGCUCCAGCCUGUAACCAGAUGUGGCCAGAUCCUGAGAGCCCACCCGUGUGACCAAACAGUGGAGAU	0.355

Sample 3 — method: competition protein-binding microarray; molecule type: double-stranded DNA, one strand shown; matrix: in vitro; concentration: 2 µM; with: Cbf1 competitor, 0.05 µM; direction: higher = stronger binding; shared flanks, not repeated: … GTCTTGATTCGCTTGACGCTGCTG
Target: Phosphate system positive regulatory protein PHO4, full length, GST-tagged (PHO4, Saccharomyces cerevisiae, UniProt P07270, residues 1-312)
Notes: whole 60-bp probe, lowest competitor level
Residues (chain): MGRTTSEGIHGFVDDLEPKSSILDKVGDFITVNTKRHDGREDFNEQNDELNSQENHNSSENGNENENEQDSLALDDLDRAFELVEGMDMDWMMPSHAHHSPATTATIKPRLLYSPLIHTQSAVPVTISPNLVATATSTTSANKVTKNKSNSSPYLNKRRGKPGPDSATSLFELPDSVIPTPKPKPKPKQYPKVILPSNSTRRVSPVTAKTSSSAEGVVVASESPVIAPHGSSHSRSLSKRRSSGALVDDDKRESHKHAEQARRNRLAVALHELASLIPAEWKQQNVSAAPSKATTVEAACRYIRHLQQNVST
Oligonucleotide	fluorescence intensity [a.u.]
TGCGCAACAACTTGGTCCGTGGGTGTATGTCTAGAA	6350
CTTCTGTAAATTTGTCACTACACTTGACGCGCCCCG	3760
CCAGAAAGCCGCTATCACGTGATGGTCAATTTCTTT	14400
TGGATATGCCGATTTCTCGTGAATAAATTTTACGGA	3630
GAAGCTGTTATACTATTCGTGATTGTGGGCAAAAAT	4320
AAATTACTAAGTTGTGGCGTGGGTGACGCCGTATGA	6400
CCGTAGCCTCTTACCAATGTGACGGAGACCCCACCG	4510
TCGGCTATCTGTGAGTACGTGCGGACTTCCAACGTC	7300
GCTGCGGCATCATTGATCATGCCATTTTTGGACAAT	4010
CTTCTGTAAATTTGAGAGGTGGGTGGACGCGCCCCG	3980
CGGGGTTAAGTTTGGCAGGTGGGTGGCTTGCAGCAG	7960
GGCACCCGCGATTCACACGTGTCCAAAAGAGTTCCC	16900
GGCTTGTGTGAGTTCCACGTGCGGATGACTTAATAA	18100
AAATTACTAAGTTGCTGGGTGGGTGACGCCGTATGA	4110
CTGAACCAGATGTTGCTCGTGGATTGGTTCGGTACC	7740
TGCGCAACAACTTGCGGCGTGGGTGTATGTCTAGAA	8040
CGTATTGGTAACCATCACGTGCCGAGCAGTAGACCT	15300
TCTCGAATAGACGGCCACGTGATGGCTAACATTAAT	18000
TTAACATAATTAAAGCACGCAGCGATTGGGTATAAT	9870
TGCGCAACAACTTTTCACGTGCGGTTATGTCTAGAA	14800
AGATAGAAGATCAAATCCGTGCCAGAACCGCCCTGC	4610
CATTGGTGTCATTGTCATGATCCACTCTGACAACAA	3780
TTCCGGGGAACGTCCCACGTTCACAACCGCGCCGCG	11100
ACACAAAATTGTGGAACCGTGACAAGCAATGGCTGA	5070
TCTTATATTGCAAAGCACGTTTCATCAAGACCTTTA	13100

Sample 4 — method: RNA Bind-n-Seq; molecule type: RNA; matrix: in vitro; concentration: 200 nM; notes: whole 134-nt RNA, ends assumed; with: 150 mM LiCl; reference: input library; direction: higher = stronger binding; library: 7-deaza-guanosine replaces G
Target: Fragile X messenger ribonucleoprotein 1, C-terminal low-complexity region (Fmr1, Mus musculus, UniProt P35922)
Shared flanks, not repeated: GGGAGUUCUACAGUCCGACGAUC … UGGAAUUCUCGGGUGUCAAGG
Oligonucleotide	log2 enrichment
AGUCCUGUGCUACACAUCGUAUGUACCGAAUCGGGGAAAGGGGUUUGGGGUUUGGGGAAAGUAUUAUGUUACGCCGUUCGGAUCUGCACU	-1.27
UAACUUUAGAGGAGGAUCUGAUGGAUAUGGCAGUGGACGUGGAUUUGGGGAUGGCUAUAAUGGGUAUGGAGGAGGACCUGGAGGCGGCAA	0.635
UCAAGUCCUGUGCUACACAUCGUAUGUACCGAAUCGGAAGGGGAAGGGGAAGGGGAAAGUAUUAUGUUACGCCGUUCGGAUCUGCACUUC	-0.0796
CUGUGCUACACAUCGUAUGUACCGAAUCGGGGAAAAAAAGGGGAAAAAAAGGGAAAAAAAGGAAAGUAUUAUGUUACGCCGUUCGGAUCU	0.341
CUCAAGUCCUGUGCUACACAUCGUAUGUACCGAAUCGGUGGAGGUUUUUUUGGAAAGUAUUAUGUUACGCCGUUCGGAUCUGCACUUCCA	0.259
CCUCAAGUCCUGUGCUACACAUCGUAUGUACCGAAUCGGGUGGGUGGGAGGGAAAGUAUUAUGUUACGCCGUUCGGAUCUGCACUUCCAG	0.0872
AGUCCUGUGCUACACAUCGUAUGUACCGAAUCGGGAAAGGGAAAAAGGGAAAAAGGGAAAGUAUUAUGUUACGCCGUUCGGAUCUGCACU	-0.7
UGGCCCUGGUGGCAUGCGGGGAGGAAGAGGUGGCCUCAUGGAUCGUGGUGGUCCCGGUGGAAUGUUCAGAGGUGGCCGUGGUGGAGACAU	0.202
UCCUGUGCUACACAUCGUAUGUACCGAAUCGGGGUUUUUUGGUUUUUUGGGUUUUUUGGAAAGUAUUAUGUUACGCCGUUCGGAUCUGCA	-0.561
UCAAGUCCUGUGCUACACAUCGUAUGUACCGAAUCGGGGCCCGGCCCGGCCCGGGAAAGUAUUAUGUUACGCCGUUCGGAUCUGCACUUC	-1.08
GUCCUGUGCUACACAUCGUAUGUACCGAAUCGGUUUUUUUGGAAAAAAAGGUUUUUGGAAAGUAUUAUGUUACGCCGUUCGGAUCUGCAC	-3.26

For quick reference, copied from above (sample 1):
Oligonucleotide	E-score
TAGCTAGA	-0.0417
GCAAACCC	0.0984
ACAACTAT	-0.0169
CTCATAGA	-0.125
CAGCGAAG	-0.0564
